Published values from different studies.
Every numbered part comes from another study and shows a few of its results, in no order. Changes are numbered by the printed parent chain.

Study 1
Target: Phosphate system positive regulatory protein PHO4, full length, GST-tagged (PHO4, Saccharomyces cerevisiae, UniProt P07270, residues 1-312)
Method: competition protein-binding microarray
Molecule type: double-stranded DNA, one strand shown
Sample: in vitro
Tested at: 2 µM
Setting: whole 60-bp probe, lowest competitor level
Added: Cbf1 competitor, 0.05 µM
Reading: higher = stronger binding
Shared flanks, not repeated: … GTCTTGATTCGCTTGACGCTGCTG
Residues (chain): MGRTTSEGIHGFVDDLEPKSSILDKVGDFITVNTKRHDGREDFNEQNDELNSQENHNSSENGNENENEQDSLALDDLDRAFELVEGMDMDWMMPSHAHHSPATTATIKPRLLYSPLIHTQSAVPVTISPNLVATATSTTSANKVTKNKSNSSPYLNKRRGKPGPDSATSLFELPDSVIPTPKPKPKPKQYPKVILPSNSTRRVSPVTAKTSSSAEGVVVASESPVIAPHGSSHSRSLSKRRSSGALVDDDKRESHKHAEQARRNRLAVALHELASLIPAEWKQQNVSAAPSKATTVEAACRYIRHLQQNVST
Sequence | fluorescence intensity
TGCGCAACAACTTGTTGAGTGGGTGTATGTCTAGAA | 5000 a.u.
AGATACATTACCACCTTCGTGATTGGAATGAATGGT | 6490 a.u.
ACTCGAATGACGAACTACCTGATCCCCTTCTTATTG | 3570 a.u.
CTAACGAAGGTTTGGCCTGTGGGTGACAAGCCAAGT | 3600 a.u.
CTTTCCCGATCTTGCCCCGTGGGTGTAGCACATTTG | 12200 a.u.
CGTCCTAGCGATTGATACGTGGGTGCCATGAGGAAG | 9610 a.u.
TACGCTGCCAGCGATTTCGTGCCAGCAGCTTTGACT | 4170 a.u.
GACCAGCTTGTGAGGCATGTGTCACCCTGGAATTTC | 7910 a.u.
CTAACGAAGGTTTACCACGTGTTTTACAAGCCAAGT | 14900 a.u.

Study 2
Target: Sal-like protein 4, full length isoform B (SALL4, Homo sapiens, UniProt Q9UJQ4-2, residues 1-616)
Method: universal PBM
Molecule type: double-stranded DNA, one strand shown
Sample: in vitro
Tested at: not given
Setting: 8-mer, flanks averaged, mean of replicates
Reading: higher = stronger binding
Sequence | E-score
CTAATCCC | 0.0526
GCAAAATA | 0.357
AAATGGTG | 0.2
AACGCATA | 0.177
CGCGCTCA | -0.125
ATCGATGC | 0.0519
GGGAGTCA | -0.124
GGAGCGCA | -0.303
ACCTACCT | -0.0588

Study 3
Target: CCNB2, cyclin fold, Cln2 fusion (human)
Method: yeast growth competition, sequencing
Sample: yeast
Setting: weak parent motif
Relative to: not given
Reading: higher = stronger binding
Parent: GMNC docking peptide (human); KNAKRNLSSEFAN
Variant | normalised enrichment score
A3N | 0.293
L7Q | 0.0389
R5I | 0.0464
K4W | 0.356
N6F | 0.26
S9T | 0.814
A3Y | 0.274
S8D | 0.405

Further values, each from its own experiment
Substance | target | assay | system | setting | scale | endpoint | value
PhoQ, residues 284 288 289 292 302 303 NLGVHL | PhoP, residues 12 14 15 18 19 LWHSL (Escherichia coli, UniProt P23836) | Sort-seq, item: YFP reporter | E. coli | PhoQ-PhoP variant library, added: 10 µM Mg2+ | relative to: high Mg2+ state, higher = stronger signaling | fold induction | 14

Repeated from above (further values, each from its own experiment):
Substance | target | assay | system | setting | scale | endpoint | value
PhoQ, residues 284 288 289 292 302 303 NLGVHL | PhoP, residues 12 14 15 18 19 LWHSL (Escherichia coli, UniProt P23836) | Sort-seq, item: YFP reporter | E. coli | PhoQ-PhoP variant library, added: 10 µM Mg2+ | relative to: high Mg2+ state, higher = stronger signaling | fold induction | 14
